Results of several laboratories.
Protocols differ between the studies behind these lines. Several values in a cell are separate wells, animals, samples, runs or records.
JAK2 JH1: Tyrosine-protein kinase JAK2, JH1 (JAK2, Homo sapiens, UniProt O60674)
JAK2: Tyrosine-protein kinase JAK2 (JAK2, Homo sapiens, UniProt O60674)

SMILES	target	assay	setting	scale	quantity	value
CCN1CCN(Cc2ccc(C(=O)Nc3ccc(C)c(NCc4cnc5[nH]ccc5c4OC)c3)cc2C(F)(F)F)CC1	JAK2 JH1	binding, competition with immobilised ligand	1 µM	–	remaining binding	58%
Cc1cnc(Nc2ccc3c(c2)CCN(C(=O)/C=C/CC(C)C)C3)nc1-c1cnn(C(C)C)c1	JAK2	ADP-Glo kinase	–	reference: IC50 JAK1 over IC50 JAK2	selectivity ratio	0.17
COc1c(Cl)cccc1Nc1c(-c2ccncc2C#C[C@@]2(C)CCCN2C(=O)/C=C/CN(C)C)[nH]c2c1C(=O)NCC2	JAK2 JH1	cell-free assay, competition with immobilised ligand	3 µM	–	remaining binding	97%
CNC(=O)C1CCN(c2cc(C)c(F)cc2NC(=O)c2ccc(-c3cc(O)ccc3C)c(C)c2)CC1	JAK2 JH1	binding, competition with immobilised ligand	1 µM	–	remaining binding	89%
Cc1cnc2nc1Nc1cccc(c1)COC/C=C/COCc1cc(ccc1OCCN1CCOCC1)N2	JAK2	inhibitor, Z'-LYTE kinase	1000 nM	–	inhibition	100% and 102% and 107%
Cc1cnc(Nc2ccc3c(c2)CCN(C(=O)/C=C/C(=O)c2ccc(Cl)cc2)C3)nc1-c1cnn(C(C)C)c1	JAK2	ADP-Glo kinase	–	reference: IC50 JAK3 over IC50 JAK2	selectivity ratio	> 73.2
CNC(=O)C[C@H](Cc1ccc(C#N)cc1)NC(=O)c1cc(-c2ccc(CN[C@H](C)c3ccc(C)cc3)o2)ccc1Cl	JAK2	enzyme activity, inhibitor	1 µM	–	activity vs control	101%
Cc1cnc2nc1Nc1cc(F)cc(c1)COC/C=C/COCc1cc(ccc1OCCN1CCCC1)N2	JAK2	inhibitor, Z'-LYTE kinase	333.3 nM	–	inhibition	95.9% and 97.2% and 96.9%
Cc1cnc(Nc2ccc3c(c2)CCN(C(=O)/C=C/C(=O)C(C)C)C3)nc1-c1cnn(C(C)C)c1	JAK2	ADP-Glo kinase	–	reference: IC50 JAK1 over IC50 JAK2	selectivity ratio	0.63
Cc1cnc2nc1Nc1cccc(c1)COCc1cc(ccc1OCCN1CCOCC1)N2	JAK2	inhibitor, Z'-LYTE kinase	1.372 nM	–	inhibition	8.7% and 5.25% and 4.17%
Cc1ccc(-c2n[nH]cc2CNC(=O)C2(C#N)CC2)cc1	JAK2	cell-free assay, competition with immobilised ligand	10 µM	–	remaining binding	1.4%
CC(C)=CC1OC(C)(C)C2C=C3C(=O)C(Cl)=CC(O)C3C3C(O)C4OC4C(=O)C132 (stereo not shown)	JAK2 JH1	cell-free assay, competition with immobilised ligand	10 µM	–	remaining binding	43%
Cc1cnc(Nc2ccc3c(c2)CCN(C(=O)/C=C/C(=O)C2CCC(C)CC2)C3)nc1-c1cnn(C(C)C)c1 (stereo not shown)	JAK2	ADP-Glo kinase	–	reference: IC50 JAK1 over IC50 JAK2	selectivity ratio	> 14.6
Nc1ncc2c(n1)-c1c([nH]c3ccc(C4=CCOCC4)cc13)CCC2	JAK2 JH1	binding, competition with immobilised ligand	1 µM	–	remaining binding	42%
C=CC(=O)N1CCCC(n2c(=O)c3ncccc3n(Cc3ccc(Oc4ccccc4)cc3)c2=O)C1 (stereo not shown)	JAK2 JH1	cell-free assay, competition with immobilised ligand	1 µM	–	remaining binding	73%
CCC(CC)C(=O)/C=C/C(=O)N1CCc2cc(Nc3ncc(C)c(-c4cnn(C(C)C)c4)n3)ccc2C1	JAK2	ADP-Glo kinase	–	reference: IC50 JAK3 over IC50 JAK2	selectivity ratio	> 3.11
CNC1C[S+]2CC[S+]3CC[S+](C1)[Ru-4]321([N]=C=S)[n]2c3ccc(OC)cc3c3c4c(c5cc(F)c[n+]1c5c32)C(=O)NC4=O (stereo not shown)	JAK2	KinomeScan	0.1 µM	reference: untreated	remaining binding	88%
CN1CCN(Cc2ccc(NC(=O)c3cccc(C#Cc4cnc(N)c5ncccc45)c3)cc2C(F)(F)F)CC1	JAK2 JH1	cell-free assay, competition with immobilised ligand	50 nM	–	remaining binding	21%
c1ccc2c(Nc3cc(C4CCC4)[nH]n3)nc(Nc3ccc4nc[nH]c4c3)nc2c1	JAK2	enzyme activity, inhibitor	0.25 µM	–	remaining activity	2%
Cc1cnc2nc1Nc1cccc(c1)COCCCCOCc1cc(ccc1OCCN1CCCC1)N2	JAK2	inhibitor, Z'-LYTE kinase	13.72 nM	–	inhibition	9.73% and 7.9% and 11.4%
Cc1cnc(Nc2ccc3c(c2)CCN(C(=O)/C=C/C(=O)C2CCCC2)C3)nc1-c1cnn(C(C)C)c1	JAK2	ADP-Glo kinase	–	reference: IC50 JAK1 over IC50 JAK2	selectivity ratio	1.6
Cc1ccc(-c2c(/C=C(\C#N)C(=O)NC(C)C)n(CCCO)c3ncnc(N)c23)cc1	JAK2 JH1	cell-free assay, competition with immobilised ligand	1 µM	–	remaining binding	85%

Some of these lines once more:
SMILES	target	assay	setting	scale	quantity	value
Cc1cnc(Nc2ccc3c(c2)CCN(C(=O)/C=C/C(=O)C2CCCC2)C3)nc1-c1cnn(C(C)C)c1	JAK2	ADP-Glo kinase	–	reference: IC50 JAK1 over IC50 JAK2	selectivity ratio	1.6
Cc1cnc(Nc2ccc3c(c2)CCN(C(=O)/C=C/CC(C)C)C3)nc1-c1cnn(C(C)C)c1	JAK2	ADP-Glo kinase	–	reference: IC50 JAK1 over IC50 JAK2	selectivity ratio	0.17
